Published values of several laboratories.
A part holds a random share of what one study measured. Substitutions count along the parent as printed.

Set 1
Target: Ras GTPase-activating protein-binding protein 1, RRM domain (G3BP1, Homo sapiens, UniProt Q13283)
UniProt Q13283, sequence (whole entry, looked up): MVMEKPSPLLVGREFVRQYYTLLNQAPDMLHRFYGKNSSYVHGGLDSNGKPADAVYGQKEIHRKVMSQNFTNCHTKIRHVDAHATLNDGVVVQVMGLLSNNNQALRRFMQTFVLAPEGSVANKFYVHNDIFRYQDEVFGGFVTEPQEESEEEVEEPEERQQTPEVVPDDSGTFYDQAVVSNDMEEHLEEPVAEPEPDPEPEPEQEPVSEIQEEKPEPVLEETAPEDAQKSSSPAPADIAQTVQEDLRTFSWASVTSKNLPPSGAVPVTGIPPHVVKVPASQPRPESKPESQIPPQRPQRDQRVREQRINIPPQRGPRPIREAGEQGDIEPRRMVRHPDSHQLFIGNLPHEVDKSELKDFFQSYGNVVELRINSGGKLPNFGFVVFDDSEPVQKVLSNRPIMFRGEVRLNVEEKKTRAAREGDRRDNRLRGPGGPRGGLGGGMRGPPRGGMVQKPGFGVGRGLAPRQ
Technique: RNA Bind-n-Seq
Molecule type: RNA
Medium: in vitro
Concentration: 1 µM
Notes: whole 134-nt RNA, ends assumed
With: 150 mM KCl
Reference: input library
Direction: higher = stronger binding
| Strand | log2 enrichment |
| --- | --- |
| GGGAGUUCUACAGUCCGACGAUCUUAGGGCCAAUCUUCGUCAAUAUGGUUUAGAGAAGUAUUACCUUGAUGUCCUGGUUUCAGAUGCAUCUAAACCUUCCUGGAGGAAGGGCAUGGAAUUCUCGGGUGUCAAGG | -0.308 |
| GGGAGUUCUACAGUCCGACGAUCUGGGCAAUGUGUCGGCUGCAUGCACGAGCCAGGAACUGCGCAGCCUCUUCGAGCGCCGCGGACGCGUCAUCGAGUGUGACGUGGUGAAAGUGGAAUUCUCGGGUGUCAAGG | -0.486 |
| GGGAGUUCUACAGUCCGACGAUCCCUCAAGUCCUGUGCUACACAUCGUAUGUACCGAAUCGGUGGGUGGGUGGGGAAAGUAUUAUGUUACGCCGUUCGGAUCUGCACUUCCAGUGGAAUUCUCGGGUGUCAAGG | 0.27 |
| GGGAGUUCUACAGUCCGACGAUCGAUGAGACAGAUGCUUCAUCAGCAGUGAAAGUGAAAAGAGCAGUCCAGAAAACAUCCGAUUUAAUAGUGUUGGGUCUCCCAUGGAAAACAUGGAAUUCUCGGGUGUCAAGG | -0.35 |
| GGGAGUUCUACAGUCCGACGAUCAGUCCUGUGCUACACAUCGUAUGUACCGAAUCGGGUUUGGGAAAAAAAGGGUUUGGGAAAGUAUUAUGUUACGCCGUUCGGAUCUGCACUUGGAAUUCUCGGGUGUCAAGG | 0.387 |
| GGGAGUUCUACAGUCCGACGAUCAGUCCUGUGCUACACAUCGUAUGUACCGAAUCGGGGCCCCGGCCCCGGGGCCCCGGGGAAAGUAUUAUGUUACGCCGUUCGGAUCUGCACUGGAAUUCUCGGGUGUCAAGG | -1.03 |
| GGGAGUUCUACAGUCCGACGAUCAAGUCCUGUGCUACACAUCGUAUGUACCGAAUCGGGGAAAGGGGAAAGGGGUGGGGAAAGUAUUAUGUUACGCCGUUCGGAUCUGCACUUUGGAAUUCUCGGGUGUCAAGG | 1.01 |
| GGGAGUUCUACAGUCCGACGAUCUUAGAUGAGGACCUUGAGAUUGAAUUGGUUGAGGAAGAGCCUCCAUUCCUGAGAGGGCACACUAAGCAAAGCAUGGACAUGAGCCCCAUUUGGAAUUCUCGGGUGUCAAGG | -0.0896 |
| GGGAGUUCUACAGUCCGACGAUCCCUGUGCUACACAUCGUAUGUACCGAAUCGGUUUUUUUGGGUUUUUUUGGUUUUUUUGGGGAAAGUAUUAUGUUACGCCGUUCGGAUCUGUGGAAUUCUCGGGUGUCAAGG | -0.36 |
| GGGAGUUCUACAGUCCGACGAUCUGGGAGGUGGAUUUUGUUUAUUUUUUUAGCUCAUUUCCAGCGGUGGGAAUUUUUUUUUAAUAUGUGUCAUGAAUAAAGUUGUUUUUGAAAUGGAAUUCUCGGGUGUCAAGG | 2.22 |
| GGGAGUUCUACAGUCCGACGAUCCCUGUGCUACACAUCGUAUGUACCGAAUCGGGGAAAAAAAGGGGAAAGGGGUUUUUGGGGAAAGUAUUAUGUUACGCCGUUCGGAUCUGCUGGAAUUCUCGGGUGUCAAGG | 0.865 |
| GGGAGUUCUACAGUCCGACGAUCUCCUGUGCUACACAUCGUAUGUACCGAAUCAAAUUUAAACCCCCCCAAACCCCCCCAAAAAAGUAUUAUGUUACGCCGUUCGGAUCUGCAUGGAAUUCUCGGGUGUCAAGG | -0.218 |
| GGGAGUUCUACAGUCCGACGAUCUGGGCCUGGUGGCAUGCGGGGAGGAAGAGGUGGCCUCAUGGAUCGUGGUGGUCCCGGUGGAAUGUUCAGAGGUGGCCGUGGUGGAGACAGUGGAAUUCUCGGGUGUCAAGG | 0.327 |
| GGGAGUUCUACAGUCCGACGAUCCUCCUGGAGUGGAUCCGGCGCACCAUCCCCUGGCUGGAGGACCGUGUGCCCCAAAAGACUAUCCAGGAGAUGCAGCAGAAGCUGGAGGACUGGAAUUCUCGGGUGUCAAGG | -0.585 |

Set 2
Target: CCNB2, cyclin fold, Cln2 fusion (human)
Technique: yeast growth competition, sequencing
Medium: yeast
Notes: weak parent motif
Reference: not given
Direction: higher = stronger binding
Starting sequence: RB1 docking peptide (human); PKPLKKLRFDIEG
| Variant | normalised enrichment score |
| --- | --- |
| P1D | 0.769 |
| K2P | 0.467 |
| I11L | 0.88 |
| K2W | 0.00181 |
| G13W | 0.233 |
| D10Y | 0.36 |
| E12A | 0.29 |
| L4C | 0.386 |
| P3D | 0.656 |
| D10Q | 0.214 |
| R8E | -0.33 |
| K2Y | 0.665 |
| L4V | 0.485 |
| G13V | 0.203 |
| L7H | 0.0876 |
| R8W | 0.0868 |
| G13M | 0.0795 |
| K5M | 0.0812 |

Set 3
Target: Sal-like protein 4, full length isoform A (SALL4, Homo sapiens, UniProt Q9UJQ4, residues 1-1053)
UniProt Q9UJQ4, sequence (whole entry, looked up): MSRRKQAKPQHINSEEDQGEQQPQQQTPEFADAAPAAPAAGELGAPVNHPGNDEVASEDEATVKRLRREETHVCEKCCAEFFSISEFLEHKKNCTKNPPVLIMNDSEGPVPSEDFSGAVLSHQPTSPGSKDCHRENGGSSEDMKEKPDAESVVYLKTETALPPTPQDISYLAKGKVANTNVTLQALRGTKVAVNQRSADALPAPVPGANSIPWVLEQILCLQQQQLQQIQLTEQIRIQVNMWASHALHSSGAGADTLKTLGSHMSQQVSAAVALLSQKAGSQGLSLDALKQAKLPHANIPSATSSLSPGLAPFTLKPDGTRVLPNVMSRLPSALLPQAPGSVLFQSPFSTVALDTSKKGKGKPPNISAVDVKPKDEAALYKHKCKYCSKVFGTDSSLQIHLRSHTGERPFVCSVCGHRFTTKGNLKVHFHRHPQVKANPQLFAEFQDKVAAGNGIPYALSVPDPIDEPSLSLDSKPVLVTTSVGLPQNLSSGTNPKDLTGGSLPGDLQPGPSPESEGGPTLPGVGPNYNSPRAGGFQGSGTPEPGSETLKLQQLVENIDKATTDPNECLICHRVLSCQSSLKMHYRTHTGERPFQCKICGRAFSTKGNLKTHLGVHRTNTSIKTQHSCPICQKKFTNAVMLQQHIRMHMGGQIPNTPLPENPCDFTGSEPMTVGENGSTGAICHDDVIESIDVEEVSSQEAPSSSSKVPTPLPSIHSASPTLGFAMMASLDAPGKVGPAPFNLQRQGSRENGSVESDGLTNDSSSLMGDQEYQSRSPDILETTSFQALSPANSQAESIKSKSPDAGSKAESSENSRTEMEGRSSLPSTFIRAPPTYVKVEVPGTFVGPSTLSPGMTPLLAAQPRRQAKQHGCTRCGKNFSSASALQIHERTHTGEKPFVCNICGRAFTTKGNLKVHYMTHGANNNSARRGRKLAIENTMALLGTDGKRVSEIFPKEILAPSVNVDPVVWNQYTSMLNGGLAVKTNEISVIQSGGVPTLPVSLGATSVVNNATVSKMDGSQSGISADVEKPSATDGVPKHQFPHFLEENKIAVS
Technique: universal PBM
Molecule type: double-stranded DNA, one strand shown
Medium: in vitro
Concentration: 600 nM
Notes: 8-mer, flanks averaged, mean of replicates
Direction: higher = stronger binding
| Strand | E-score |
| --- | --- |
| ACACCATC | -0.026 |
| AATAGATG | 0.178 |
| AGGAACGC | -0.258 |
| AGAGAAAC | -0.0421 |
| GCGTTAAC | -0.0443 |
| CTTCAACC | -0.0321 |
| ACCCTAGC | -0.176 |
| TGAGTCCA | -0.0368 |
| CAACATAC | 0.211 |
| AAGATACA | 0.237 |
| CACAATAA | 0.277 |
| ATAGGTAG | 0.0885 |
| AGATGTCG | -0.0467 |
| GCGTCAGA | -0.191 |
| TCGCAACA | 0.0259 |
| GCATGGCA | -0.00957 |
| CGAAGTCC | -0.127 |
| GCCCAAGC | -0.257 |
| ATTCTGCA | 0.204 |
| CTTAAAAG | 0.108 |
| GTCGGCCA | -0.242 |

Set 4
Target: ABI1, truncated, D143A, DHFR fusion (Arabidopsis thaliana)
Technique: DHFR PCA, deep sequencing
Medium: yeast
Notes: methotrexate growth selection, single substitutions
With: (+)-ABA 0.11 µM
Reference: wild-type fitted maximum
Direction: higher = stronger binding
Starting sequence: PYL1, truncated, DHFR fusion (Arabidopsis thaliana); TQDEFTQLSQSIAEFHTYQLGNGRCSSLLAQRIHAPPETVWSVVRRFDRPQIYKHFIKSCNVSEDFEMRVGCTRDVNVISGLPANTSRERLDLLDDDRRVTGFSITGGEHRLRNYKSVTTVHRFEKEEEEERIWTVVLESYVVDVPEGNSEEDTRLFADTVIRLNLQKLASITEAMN
| Variant | relative binding score |
| --- | --- |
| C72F | 3.63% |
| V118N | 3.5% |
| V142Q | 20.4% |
| L156W | 8.98% |
| V44F | -2.93% |
| E125C | 53.8% |
| Y115P | -5.88% |
| D65V | 1.92% |
| E147C | 5.41% |
| T39F | 1.21% |
| A175D | 24.1% |
| V40K | -3.16% |
| I105Y | -8.61% |
| T120A | -2.19% |
| V70M | 4.32% |
| H55K | 22.2% |
| F66C | 7.29% |
| L8Y | 29.9% |
| V70N | 2.73% |
| Y141C | 7.11% |

Set 5
Target: Interferon regulatory factor 5, full length, phosphomimetic (IRF5, Homo sapiens, UniProt Q13568-2, residues 1-514, S451D/S453D/S456D/S462D)
Technique: protein-binding microarray
Molecule type: double-stranded DNA, one strand shown
Medium: in vitro
Concentration: 940 nM top
Notes: 60-bp whole probe
With: salmon DNA 0.4 mg/ml
Reference: random background probes
Direction: higher = stronger binding
All sequences stand within: GCCTAGCAC … GTCTTGATTCGCTTGACGCTGCTG
| Strand | fitted relative affinity [z-score] |
| --- | --- |
| TTAGAACTGGCGTATCGATTAGTGCTA | 0.838 |
| GACGGTCACCTTTTCCTGACGTGCTAG | 0.471 |
| GATGATTTCAGTTTCGAGACGTGCTAG | 4.71 |
| GACGGTATCGAATTTCGGGACGTGCTA | 2.61 |
| TTAGGTATCGGTATGGGTTAGTGCTAG | 10.6 |
| TTCGGACTGCTTCTCCTTTAGTGCTAG | 0.165 |
| TCAAGTTTCTCCTTTGTACTGTGCTAG | 3.1 |
| TTAGGTAGCGGGACTGGGTTAGTGCTA | -0.122 |
| TTAGATATCGGGACTGGATCAGTGCTA | 0.17 |
| TTAGGTTTCGACTACCGGTTAGTGCTA | 9.9 |
| CCGAGAAACAGTAACCCTCTGTGCTAG | 0.511 |
| AACGGACTGGACACTGGGGACGTGCTA | -0.537 |
| TTAGATTTCGGGACAGGATTAGTGCTA | 0.894 |
| TTCCCTTTTAAGTTCTCTGAGTGCTAG | 1.41 |
| TTCGGTTTCGGGTTTCGGTTAGTGCTA | 11.7 |
| GATGGTTTCGGTTCCGGGACGTGCTAG | 15.9 |
| TTTCCCTAGAAGACGAAAGAGTGCTAG | 0.955 |
| GACGGTATCCTACTGATGACGTGCTAG | -0.182 |
| TTAGAACTGAGACTGGAATAGTGCTAG | -0.0961 |
| GTAGAACTGGGGTATCGATTAGTGCTA | 2.66 |
| TCATTTCTCTCTGTGACACTGTGCTAG | 1.61 |
| TTAGATTTCAGTTTAGATTAGTGCTAG | 1.04 |
| TCAAATTACCTTTTCACACTGTGCTAG | 0.746 |
| AGCAGTTGGACCTCTCAGCCAGTGCTA | -0.373 |
| CTTTCTTTTATGCTCTTTCTGTGCTAG | 2.36 |

Some of these lines once more (set 1):
| Strand | log2 enrichment |
| --- | --- |
| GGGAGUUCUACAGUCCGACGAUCCCUCAAGUCCUGUGCUACACAUCGUAUGUACCGAAUCGGUGGGUGGGUGGGGAAAGUAUUAUGUUACGCCGUUCGGAUCUGCACUUCCAGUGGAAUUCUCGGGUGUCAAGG | 0.27 |
| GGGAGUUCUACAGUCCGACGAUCGAUGAGACAGAUGCUUCAUCAGCAGUGAAAGUGAAAAGAGCAGUCCAGAAAACAUCCGAUUUAAUAGUGUUGGGUCUCCCAUGGAAAACAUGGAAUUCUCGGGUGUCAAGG | -0.35 |
| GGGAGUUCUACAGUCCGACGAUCAGUCCUGUGCUACACAUCGUAUGUACCGAAUCGGGUUUGGGAAAAAAAGGGUUUGGGAAAGUAUUAUGUUACGCCGUUCGGAUCUGCACUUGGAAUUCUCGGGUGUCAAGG | 0.387 |
| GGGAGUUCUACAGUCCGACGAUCAGUCCUGUGCUACACAUCGUAUGUACCGAAUCGGGGCCCCGGCCCCGGGGCCCCGGGGAAAGUAUUAUGUUACGCCGUUCGGAUCUGCACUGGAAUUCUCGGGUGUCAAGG | -1.03 |
| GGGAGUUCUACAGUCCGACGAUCAAGUCCUGUGCUACACAUCGUAUGUACCGAAUCGGGGAAAGGGGAAAGGGGUGGGGAAAGUAUUAUGUUACGCCGUUCGGAUCUGCACUUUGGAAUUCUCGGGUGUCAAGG | 1.01 |
| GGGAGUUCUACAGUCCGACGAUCUUAGAUGAGGACCUUGAGAUUGAAUUGGUUGAGGAAGAGCCUCCAUUCCUGAGAGGGCACACUAAGCAAAGCAUGGACAUGAGCCCCAUUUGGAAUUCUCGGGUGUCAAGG | -0.0896 |
